# Measurements gathered from unrelated publications.
# Each line is one published result; not all experiments were run side by side. Several values in a cell are separate wells, animals, samples, runs or records. Numbers after ± are the reported error.
SMILES,cell line,assay,setting,scale,measurement,value
CCc1c(C)c2ccc(OC(C)C)c(C)c2oc1=O,PC-3,"cell growth or viability, MTT",250 µg/mL,,viability,2.8%
CC[C@H]1CN([C@@H](CC)c2ccc(C(F)(F)F)cc2)[C@H](CC)CN1c1nc(=O)n(C)c2ccc(C#N)nc12,mouse naive OT-1 CD8+ T cells,T-cell proliferation,"4 days, together with: BMDCs cross-presenting OVA",,EC50,15 nM
C=C1C(=O)OC2C1CCC(C)(O)C13C=CC(C)(C21)C1(C3)C(=O)OC2C3=C(C)CC(O)C3C(=C)CC(OC(=O)C(C)=CC)C21 (centres unmarked),AML12 mouse hepatocytes,"lipid accumulation, Nile Red staining","maximum safe concentration, 24 h, together with: palmitic acid/oleic acid",,maximum inhibition,21.1 ± 3.24%
O=CCNCCOn1c(=O)n(OCCNCCO)c(=O)n(OCCNCCOn2c(=O)n(OCCNCCO)c(=O)n(OCCNCCO)c2=O)c1=O,A549,"cell growth or viability, MTT","12.5 µg/mL, 72 h",,viability,54.9%
COC(=O)[C@@]1(C)C=C(C(=O)Nc2cccc(C(=O)Nc3ccc(Nc4nccc(-c5cccnc5)n4)c(C)c3)c2)C(=O)CC1,HEK293 AP1 reporter cells,"AP-1 reporter gene, inhibitor","10 µM, 6 h, unit not given, together with: PMA",relative to: PMA alone,reporter activity,0.0374 and 0.0509
COc1cccc(O)c1C(=O)/C=C/c1ccc2cc(N3CCCC3)ccc2c1,HK-2,"item: TNF-α, IL-1β, IL-6","concentration not given, together with: cisplatin",,inflammatory cytokine secretion,decreased
C=C1C(=O)OC2C1CCC(C)(O)C13C=CC(C)(C21)C1(C3)C(=O)OC2C3C(C)C(=O)CC3C(=C)CC(OC(C)=O)C21 (centres unmarked),AML12,,"concentration not given, concentration-dependent, together with: palmitate/oleate",,NEFA content,decreased
C=CC(=O)N1[C@H](c2ccc3c(c2)OCO3)c2[nH]c3ccccc3c2C[C@@H]1C(=O)NC1CC1,rat DRG neurons,,"0.3704 µM, 48 h, together with: vincristine 40 nM",,neuron degeneration,46.3% and 42.1%
COc1cc(/C=C/C(=O)/C=C(O)/C=C/c2ccc(OCC(=O)N3CCOCCOCCOCCOCCOCC3)c(OC)c2)ccc1OCC(=O)N1CCOCCOCCOCCOCCOCC1,COS-7,"cell growth or viability, SRB",5 µM,,inhibition,44.7%
CO[C@@H]1[C@@H](OC(=O)c2ccc(C)[nH]2)[C@@H](O)[C@H](Oc2ccc3c(O)c(NC(=O)c4c[nH]c(C(=O)Nc5c(O)c6ccc(O[C@@H]7OC(C)(C)[C@H](OC)[C@@H](OC(=O)c8ccc(C)[nH]8)[C@H]7O)c(C)c6oc5=O)c4C)c(=O)oc3c2C)OC1(C)C,"HaCaT Tet-On cells, doxycycline-induced",,7.5 µM,,cell number,18%
O=C(C[Se]C(=O)c1cc2ccccc2[nH]1)Nc1cccc(C(F)(F)F)c1,NCI60 CNS cancer panel,five-dose screen,,,GI50,1470 nM
CN(C)c1ccc(-n2cc(COC(=O)[C@@]3(C)C=C(C(=O)OC(C)(C)C)C(=O)CC3)nn2)cc1,HeLa,quantitative western blot,"concentration not given, 15 (unit not given), together with: EGF",,pRSK/tubulin ratio,0.219
CCCCCCc1cccc([C@H](O)C[C@H](CO)NC(=O)CCCCCCCCCCBr)c1,HeLa,"CERT activity, HPLC-MS/MS lipidomics, item: ceramide 16","1 µM, 24 h, not cell-number normalised",,ceramide level,23800 pmol/sample and 23200 pmol/sample and 20400 pmol/sample
COC(=O)c1cc(NC2=NC(=O)C(=Cc3ccc(N(C)C)cc3)S2)ccc1OC(C)=O,A549,item: BARD1 mRNA,"2.93 µM (IC50), 24 h",relative to: DMSO,fold change,0.0451
CCOc1cncc(-c2ccc(NC(=O)C3(c4ccnc(NS(=O)(=O)C5CC5)n4)CCOCC3)nc2)n1,FaDu,"cell proliferation, CellTiter-Glo",72 h,,IC50,10000 nM
COc1ccccc1-c1ccncc1C(=O)Nc1nnc(OCc2ccc(Cl)cc2)s1,DLD-1 parental,,"0.125 µM, mean of replicates",,colony count,66.5 and 76.5 and 79.5
Cc1ccc(-n2cc(CSc3nc4ccccc4n3Cc3cn(-c4ccc(C)cc4)nn3)nn2)cc1,MDA-MB-231,MTT,31.3 ppm,,viability,14.8%
CCN(CC)CC(=O)Nc1cccc(-n2cc(-c3ccc4ccc(-c5cn(-c6cccc(NC(=O)CN(CC)CC)c6)nn5)cc4c3)nn2)c1,RCC4,"PCR angiogenesis array, item: FN1","5 x IC50, 6 h, normoxia",relative to: untreated,fold regulation,-1.84
COC(=O)C1=C(C)Oc2cc(OC)ccc2C1C(C(C)=O)C(=O)OC (centres unmarked),3T3-L1,"cell growth or viability, MTT",72 h,,IC20,101 µg/mL
Cc1cc(NC(=O)c2cccc(NC(=O)/C(C#N)=C/C(C)(C)C)c2)ccc1Nc1nccc(-c2cccnc2)n1,HEK293 AP1 reporter cells,"AP-1 reporter gene, inhibitor","10 µM, 6 h, unit not given, together with: PMA",relative to: PMA alone,reporter activity,0.642
COc1cc(N2CCN(C(=O)CCOCCNC(=O)[C@@H]3CCCN3)CC2)ccc1Nc1ncc(Cl)c(Nc2ccccc2P(C)(C)=O)n1,NCI-H3122,flow cytometry,"500 nM, 24 h",,G1 phase cells,60%
CCCCN1C(=O)c2cccc3c(NCCCN4CCOCC4)ccc(c23)C1=O,BHK-21,"confocal microscopy, item: lysosome colocalisation","0.2 µM, together with: 0.3 µM LysoTracker Deep Red",,Pearson's correlation coefficient,0.89 ± 0.04
COc1cccc(OC)c1-c1cc(C(=O)NC2(C(=O)O)C3CC4CC(C3)CC2C4)nn1-c1ccc(C(=O)N(C)CCCN(C)C(=O)[C@H](CCCCNC(=O)[C@H](CC(C)C)NC(=O)C2OC2C(=O)O)NC(=O)CN2CCN(CC(=O)[O-])CCN(CC(=O)[O-])CCN(CC(=O)[O-])CC2)cc1C(C)C.[177Lu+3] (mixture of isomers),HT-29,,"concentration not given, 30 min",relative to: added activity,internalized fraction,4.2 ± 0.23%
CO[C@@H]1[C@@H](OC(N)=O)[C@@H](O)[C@H](Oc2ccc3c(O)c(NC(=O)c4ccc(O)c(CC=C(C)C)c4)c(=O)oc3c2C)OC1(C)C,DLD-1 BRCA2-/-,,"300 µM, mean of replicates A, B",relative to: untreated,colony survival,0.326%
Cc1cc(NC2CCN(C)CC2)ccc1-c1cc2c(N3CCC[C@H](C(=O)N[C@H](C)c4ccccc4)C3)ncnc2[nH]1,KARPAS-299,"cell growth or viability, MTT","0.04 µg/mL, 72 h",,inhibition,22.6%
Cn1ncc2cc(-c3cncc(Cl)c3N3CCC4(CCNC4=O)CC3)ccc21,LS174T,"gene expression, microarray, item: ALOX5 mRNA","concentration not given, 4 h",relative to: untreated cells,log2 fold change,1.15
CNS(=O)(=O)Nc1nccc(Cc2c(C)c3ccc(Oc4ncccc4F)cc3oc2=O)c1F,KNS-81,"cell viability, CellTiter-Glo",7 days,,IC50,> 1000 nM
CN1CCCNC(=O)c2cccc(c2)C(=O)NCCCN(C)CCCNc2cccc3c2C(=O)c2cccc(c2C3=O)NCCC1,SAS,"RNA-Seq, item: ENDOV mRNA","1 µM, 6 h",relative to: untreated cells,log2 fold change,1.24
CC(C)c1ccc(N(C)c2ccc3c(c2)OCC[C@H]3CNc2cnccc2C(=O)O)cc1,IMR-90 normal fibroblast,cell proliferation,168 h,,IC50,> 1000 nM
C[C@@H](Nc1nc2c(cnn2C(C)(C)C)c(=O)n1Cc1cccc(F)c1)c1ccc(Cl)cc1,BV-2,,"concentration not given, together with: LPS 0.5 µg/mL",,NO production,decreased
CCCCCCCCCC(=O)[O][Pt]([Cl])([Cl])[O]C(=O)CCCCCCCCC.N.N,A549/DDP cisplatin-resistant,,together with: survivin siRNA transfection,relative to: non-transfected over transfected,IC50 fold reduction,1.46 fold
[BH3-][P+]1(c2ccccc2)CCCCC1,PC-3,MTT,72 h,relative to: IC50 HaCaT over IC50 PC-3,selectivity index,2.7
Cc1ncsc1-c1ccc(C(C)NC(=O)C2CC(O)CN2C(=O)C(NC(=O)CCCCCCCCCCN2CCCC(Nc3ncc(Cl)c(Nc4ccccc4S(=O)(=O)C(C)C)n3)C2)C(C)(C)C)cc1 (centres unmarked),22Rv1,"RNA-seq, item: TNFSF4 mRNA",concentration not given,relative to: DMSO,log2 fold change,-2.64
CSC(=S)N/N=C(\C)c1ccc(Nc2nnc(-c3ccc(Cl)cc3)c3ccccc23)cc1,MCF7,"cell growth or viability, MTT",2.5 µM,,cell death,89.6%
CN1CCN(C(=O)c2ccc(-c3cc4c(N5CCC[C@H](C(=O)NCc6ccc(OC(F)(F)F)cc6)C5)ncnc4[nH]3)cc2)CC1,KARPAS-299,"cell growth or viability, MTT","5 µg/mL, 72 h",,inhibition,88.8%
